Assay results gathered from unrelated publications.
Numbered parts are unrelated; each lists some results of a single study. Substitutions count along the parent as printed.

Sample 1 — target: CCNA1, cyclin fold, Cln2 fusion (human); method: yeast growth competition, sequencing; medium: yeast; notes: weak parent motif; reference: not given; direction: higher = stronger binding; endpoint: normalised enrichment score
Starting sequence: SLBP docking peptide (human); ARYKRKLLINDFG; partner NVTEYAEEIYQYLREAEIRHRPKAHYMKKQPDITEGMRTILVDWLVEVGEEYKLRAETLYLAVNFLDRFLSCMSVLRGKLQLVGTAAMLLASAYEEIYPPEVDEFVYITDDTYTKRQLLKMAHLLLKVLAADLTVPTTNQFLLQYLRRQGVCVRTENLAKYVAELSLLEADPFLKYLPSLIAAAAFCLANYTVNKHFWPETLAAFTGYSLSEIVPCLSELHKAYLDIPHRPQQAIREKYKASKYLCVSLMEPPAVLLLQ
K6L: 0.216
R5Q: 0.136
L7P: 0.114
Y3L: 0.396
F12M: 0.147
K4S: 0.279
K4D: 0.193
R2K: 0.361
A1L: 0.282
I9M: 0.558
K4F: 0.2
L8I: 0.548
K6Q: 0.659
R5A L7A: 0.0937
G13C: 0.473

Sample 2 — method: DHFR PCA, deep sequencing; medium: yeast; with: (+)-ABA 0 µM; reference: wild-type fitted maximum; direction: higher = stronger binding; endpoint: relative binding score
Target: ABI1, truncated, D143A, DHFR fusion (Arabidopsis thaliana)
Notes: methotrexate growth selection, single substitutions
Starting sequence: PYL1, truncated, DHFR fusion (Arabidopsis thaliana); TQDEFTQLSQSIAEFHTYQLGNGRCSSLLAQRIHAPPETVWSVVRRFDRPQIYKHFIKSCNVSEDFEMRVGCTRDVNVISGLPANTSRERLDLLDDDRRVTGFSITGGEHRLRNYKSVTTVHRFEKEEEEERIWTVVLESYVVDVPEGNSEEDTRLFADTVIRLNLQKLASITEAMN
P50F: 3.99%
V145G: -4.18%
K168F: -5.74%
A170V: -1.46%
S9G: 16.1%
F56E: 1.01%
L82A: 10.3%
G107T: 1.33%
L112W: 17%
V70R: 0.759%
V78L: 65.3%
Q167A: 26.3%
A84K: 4.02%
T173H: 0.38%

Sample 3 — method: RNA Bind-n-Seq; molecule type: RNA; medium: in vitro; concentration: 1 µM; notes: whole 134-nt RNA, ends assumed; with: 150 mM KCl; reference: input library; direction: higher = stronger binding; endpoint: log2 enrichment
Target: Ras GTPase-activating protein-binding protein 1, RRM domain (G3BP1, Homo sapiens, UniProt Q13283)
UniProt Q13283, sequence (whole entry, looked up): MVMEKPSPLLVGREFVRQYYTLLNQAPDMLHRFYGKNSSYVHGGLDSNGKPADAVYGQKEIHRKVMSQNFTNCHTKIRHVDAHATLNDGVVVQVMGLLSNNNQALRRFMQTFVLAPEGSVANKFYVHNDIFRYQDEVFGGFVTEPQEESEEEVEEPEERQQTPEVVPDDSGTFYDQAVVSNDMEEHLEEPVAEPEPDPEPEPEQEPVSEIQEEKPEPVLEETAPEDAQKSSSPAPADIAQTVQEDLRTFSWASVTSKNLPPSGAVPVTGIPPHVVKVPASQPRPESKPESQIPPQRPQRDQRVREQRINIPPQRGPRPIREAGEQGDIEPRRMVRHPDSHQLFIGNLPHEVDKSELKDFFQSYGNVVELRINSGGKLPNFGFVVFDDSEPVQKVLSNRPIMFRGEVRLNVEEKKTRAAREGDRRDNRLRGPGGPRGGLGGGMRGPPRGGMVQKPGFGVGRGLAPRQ
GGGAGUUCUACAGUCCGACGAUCAGUCCUGUGCUACACAUCGUAUGUACCGAAUCGGGCCCCGGGGCCCCGGGGCCCCGGAAAGUAUUAUGUUACGCCGUUCGGAUCUGCACUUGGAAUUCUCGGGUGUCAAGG: -0.681
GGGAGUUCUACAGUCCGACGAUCUCCUGUGCUACACAUCGUAUGUACCGAAUCGGGCCCCCCGGCCCCCCGGCCCCCCGGGGAAAGUAUUAUGUUACGCCGUUCGGAUCUGCAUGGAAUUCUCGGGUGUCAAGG: -0.482
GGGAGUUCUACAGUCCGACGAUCGUCCUGUGCUACACAUCGUAUGUACCGAAUCGGGGAAAAAGGGGAAAAAGGAAAAAGGAAAGUAUUAUGUUACGCCGUUCGGAUCUGCACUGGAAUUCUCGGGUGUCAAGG: 0.0988
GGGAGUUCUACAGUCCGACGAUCUGGCCCUGGUGGCAUGCGGGGAGGAAGAGGUGGCCUCAUGAAUCGUGGUGGUCCCGGUGGAAUGUUCAGAGGUGGCCGUGGUGGAGACAGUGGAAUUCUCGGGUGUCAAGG: 0.373
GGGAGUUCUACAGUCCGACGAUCUAACUUUAGAGGAGGAUCUGAUGGAUAUUGCAGUGGACGUGGAUUUGGGGAUGGCUAUAAUGGGUAUGGAGGAGGACCUGGAGGUGGCAAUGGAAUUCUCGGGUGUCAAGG: -0.724
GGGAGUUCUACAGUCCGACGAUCCCUCAAGUCCUGUGCUACACAUCGUAUGUACCGAAUCGGUGGGGUGGGUGGGGAAAGUAUUAUGUUACGCCGUUCGGAUCUGCACUUCCAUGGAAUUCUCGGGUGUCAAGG: 0.298
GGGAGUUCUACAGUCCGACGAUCCUGUGCUACACAUCGUAUGUACCGAAUCGGGGAAAAAAAGGGGAAAAAAAGGGAAAAAAAGGAAAGUAUUAUGUUACGCCGUUCGGAUCUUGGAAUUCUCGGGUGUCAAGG: 0.178
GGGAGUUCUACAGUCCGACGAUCCAAGUCCUGUGCUACACAUCGUAUGUACCGAAUCGGUUUUUUUGGUUUGGUUUGGAAAGUAUUAUGUUACGCCGUUCGGAUCUGCACUUCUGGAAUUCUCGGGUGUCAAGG: -0.351
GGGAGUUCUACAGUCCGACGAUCAAGUCCUGUGCUACACAUCGUAUGUACCGAAUCGGGAAAAAGGGAAAAAGGGUGGGAAAGUAUUAUGUUACGCCGUUCGGAUCUGCACUUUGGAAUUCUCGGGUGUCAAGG: 0.885

Mixed results
PhoQ, residues 284 288 289 292 302 303 TNASYF
fold induction (PhoP, residues 12 14 15 18 19 LHHVQ (Escherichia coli, UniProt P23836); Sort-seq, measured: YFP reporter; E. coli; PhoQ-PhoP variant library, with: 10 µM Mg2+; reference: high Mg2+ state, higher = stronger signaling): 10.7

Repeated from above (sample 2):
L112W: 17%
V70R: 0.759%
V78L: 65.3%
